Experimental data gathered from unrelated publications.
Lines come from different studies, so protocols differ. ± marks the error that the study gave.

| Structure (SMILES) | assay | test system | conditions | scale | measurement | result |
| --- | --- | --- | --- | --- | --- | --- |
| O=C(O)CCC(=O)O.[2H]C([2H])([2H])Oc1cc(C)c2[nH]ccc2c1CN1CC[C@@H](C2CC2)C[C@H]1c1ccc(C(=O)O)cc1 | multiple ascending dose | healthy Chinese subjects | 50 mg twice daily |  | subjects with any TEAE | 75% |
| Cc1ccc(C(=O)N(CCCN)C(c2nc3snc(C)c3c(=O)n2Cc2ccccc2)C(C)C)cc1 (stereo not shown) | hypophosphataemia grade ≥3 (CTCAE) | human patients | intravenous, 18 mg/day |  | patients with adverse event | 0% |
| CC1(C)CCC(CN2CCN(c3ccc(C(=O)NS(=O)(=O)c4ccc(NCC5CCOCC5)c([N+](=O)[O-])c4)c(Oc4cnc5[nH]ccc5c4)c3)CC2)=C(c2ccc(Cl)cc2)C1 | UPLC-MS/MS | responders, good/moderate prognosis | oral, dose not given, 6 h, normalised to dose per body weight |  | dose-normalised C6 (C6/D) | 0.847 ± 0.896 µg/mL per mg/kg |
| Cl.[2H]C([2H])([2H])CC(=O)c1cnc(NC(=O)C2CC2)cc1Nc1cccc(-c2ncn(C([2H])([2H])[2H])n2)c1OC | geometric mean | human | oral, 10 mg once daily, day 1, fasted, liquid, multiple dose |  | AUC(0-tau) | 701 ng·h/mL |
| C=CC(=O)NC1CCN(c2ncc3ncnc(Nc4ccc(Oc5ccc6c(c5)ncn6C)c(C)c4)c3n2)CC1 | refers to: total radioactivity | healthy male volunteers, whole blood | oral solution, 60 mg, 14C-labelled, geometric mean |  | AUC(0-24) | 11 µM·h |
| CCN1/C(=C/C(C)=O)Sc2ccc(F)cc21 |  | cynomolgus monkey | oral, 30 mg/kg, 4 h post-dose |  | QT interval | 277 ± 39 ms |
| NC1(C(=O)N[C@@H](CCO)c2ccc(Cl)cc2)CCN(c2nc[nH]c3nccc2-3)CC1 |  | metastatic CRPC patients | 400 mg b.i.d., any grade, treatment-related, with: enzalutamide 160 mg daily |  | incidence of Blindness | 14.3% |
| CC#CC(=O)N1CC[C@@H](n2c(=O)n(-c3ccc(Oc4ccccc4)cc3)c3c(N)ncnc32)C1 |  | human, fasting, plasma | oral, 160 mg once daily, cycle 1 day 28 |  | AUC(0-12h) | 2590 ± 179 ng·h/mL |
| Cn1cc(Nc2nccc(-c3ccc4c(c3)CN(C3COC3)CC[C@H]4NC(=O)c3cn(C(C)(C)C)nn3)n2)cn1 |  | human, whole blood | 50 mg twice daily, day 14 | reference: pre-dose baseline | naive B cell count change | 20.7% |
| CC(C)(C(=O)N1CCOc2c(C#N)cncc2C1)C(F)F | refers to: medical device site dermatitis | healthy humans, both sexes | oral, 20 mg single dose |  | subjects with TEAE | 0% |
| O=C(Nc1cccc(Nc2ncc(Br)c(NCCc3c[nH]cn3)n2)c1)N1CCCC1 | PAMPA | PBS | 5 h, pH 7.4 |  | effective permeability | 0.139 ×10⁻⁶ cm/s |
| COc1cc2c3c(n(CCCNCCO)c(=O)c2cc1OC)-c1nc2c(cc1C3=O)OCO2 |  | male CD1 mouse, plasma | intravenous, 1 mg/kg |  | dose-normalized AUC(0-t) | 151 ng·h/mL |
| C[C@@H]1COCCN1c1cc(C2([S@](C)(=N)=O)CC2)nc(-c2cc[nH]c3nccc2-3)n1 |  | Japanese advanced solid tumour patients | oral, 240 mg twice daily, any grade |  | Rash incidence | 0% |
| Cc1cc(-c2nccc3c2ccn3CC(=O)Nc2ccc(-c3cnccn3)cn2)ccn1 |  | human, plasma | oral, 15 mg once daily, day 1, geometric mean |  | terminal half-life | 9.74 h |
| C=CC(=O)NC1CCN(c2ncc3ncnc(Nc4ccc(Oc5ccc6c(c5)ncn6C)c(C)c4)c3n2)CC1 |  | healthy male humans | oral, 240 mg |  | AE leading to discontinuation | 0% |
| CN1CCN(c2cccc3c2CCN(C(=O)/C=C/c2c(-n4cnnn4)ccc(Cl)c2F)[C@@H]3C(=O)Nc2ccc(C(=O)O)cc2)C(=O)C1 |  | healthy human subjects | intravenous infusion, 9 mg/h, 5 days |  | subjects with any adverse event | 44.4% |
| CCCC1CCC(c2ccc(OCC)c(F)c2F)CC1 (stereo not shown) |  | rat, fetus | 1000 ng/mL in perfusate, middle dose, mixture of 21 LCMs |  | fetal accumulation | 0.186 ± 0.094 ng/g |
| O=C(O)CC(O)(CC(=O)O)C(=O)O |  | Wistar rat | 175 and 1000 mg/kg, weeks 2 and 4 |  | body weight | decreased |
| COc1ccc([C@@H](O)c2cc(-c3ncnc4cc(N5CCOCC5)ccc34)c(F)cc2Cl)nn1 |  | locally advanced rectal cancer patients | 50 mg, with: capecitabine and radiotherapy |  | drug-related blood lymphatic AE | 0% |
| Cc1cc(Nc2ncnc3ccc(NC4=NC(C)(CO)CO4)cc23)ccc1Oc1ccn2ncnc2c1 (stereo not shown) |  | human, plasma | oral, 300 mg tucatinib single dose, day 1, tucatinib alone |  | AUC(0-inf) (arithmetic mean) | 485 ng·h/mL |
| C=CC(=O)N1CCC(c2ccc(C(N)=O)c(-c3ccc(Oc4ccccc4)cc3)n2)CC1 | serious adverse event Infection | patients with relapsed/refractory MCL | oral |  | incidence | 0.9% |
| C[C@@H](Nc1cc(F)cc(F)c1)c1cc(C(=O)N(C)C)cc2c(=O)cc(N3CCOCC3)oc12 | refers to: Chills | advanced solid tumour patients | oral, dose not given, dose finding |  | patients discontinuing for AE | 0% |
| CCN1CCN(Cc2ccc(NC(=O)c3ccc(C)c(NC(=O)c4cncc(-c5cccs5)c4)c3)cc2C(F)(F)F)CC1 |  | C57BL/6 mice, epithelial lining fluid | intraperitoneal, 15 mg/kg |  | mean residence time | 2.53 h |
| CO[C@@H]1[C@H](OC(=O)N2CC(CCN3CCOCC3)C2)CC[C@]2(CO2)[C@H]1[C@@]1(C)O[C@@H]1CC=C(C)C |  | human | dose not given, day 28, multiple ascending dose, unit not given | reference: baseline | INR change | 0.01 ± 0.04 |
| C[C@]12CC[C@H](O)CC1=CC[C@@H]1[C@@H]2CC[C@]2(C)C(c3cccnc3)=CC[C@@H]12 |  | FaSSIF | literature solubility over dose |  | dose-adjusted solubility | 7.83e-06 mL⁻¹ |

| Structure (SMILES) | assay | test system | conditions | scale | measurement | result |
| --- | --- | --- | --- | --- | --- | --- |
| O=C(Nc1ccc(OC(F)(F)Cl)cc1)c1cnc(N2CC[C@@H](O)C2)c(-c2ccn[nH]2)c1 | per patient, refers to: platelet decrease | human patients | oral, dose not given, dose-finding study |  | grade ≥3 event rate | 14.6% |
| CCn1c(=O)c(-c2cc(NC(=O)Nc3ccccc3)c(F)cc2Br)cc2cnc(NC)cc21 | refers to: nervous system disorders | human, moderate hepatic impairment | oral, 50 mg single dose |  | participants with drug-related TEAE | 0% |
| O=C(CCCCCCC(=O)Nc1ccc(CC[18F])cc1)NO |  | athymic nu/nu male mice, LNCaP xenograft, muscle | intravenous, 0.5 h |  | tissue uptake | 1.9 ± 0.3 %ID/g |
| FC(F)(F)c1ccc(CNc2ccc(Cc3c[nH]c4ncc(Cl)cc34)cn2)cn1 | refers to: Pruritus | patients with advanced solid tumours | oral, dose not given, grade 3 and 4, possibly related to drug |  | adverse event incidence | 0% |
| CO[C@@H]1[C@H](O)[C@@H](CO)O[C@H]1n1c([N+](=O)[O-])nc2c(=O)[nH]c(N)nc21 |  | citrate phosphate buffer | 0.5 mM, pH 7.10, 37 °C |  | depurination half-life | 66.7 h |
| C=CCN1CC(=O)N2[C@@H](Cc3ccc(O)cc3F)C(=O)N(Cc3cccc(N4CC(N5CCN(CC)CC5)C4)n3)C[C@@H]2N1C(=O)NCc1ccccc1 | refers to: Vomiting | advanced solid tumour patients | all doses, expansion part, grade ≥3 |  | treatment-related adverse events | 0% |
| O=C1NCCc2nc(OCc3cccc(F)c3)ccc21 | refers to: Mydriasis | Sprague-Dawley rat male | oral, 100 mg/kg, 4 h | direction not given | Irwin test score | 0 |
| Nc1ncnc2c1ncn2[C@H]1C[C@@H]2OP(=O)(O)OC[C@H]3O[C@@H](n4cnc5c(N)ncnc54)C[C@@H]3OP(=O)(O)OC[C@H]2O1 |  | non-tumor-bearing mice, blood | intravenous, 1 mg/kg, toxicity study |  | RDW-CV | 12.6 ± 0.32% |
| N#C[C@@]1(c2ccc3c(N)ncnn23)O[C@H](CO)[C@@H](O)[C@H]1O |  | human plasma | 1 µM |  | fraction unbound | 0.818 |
| CC[C@H](C)[C@H](NC(=O)[C@H](CO)NC(=O)[C@H](CCCNC(=N)N)NC(C)=O)C(=O)N[C@H]1CSSC[C@@H](C(=O)N[C@H](C(N)=O)[C@@H](C)O)NC(=O)[C@H](CCCNC(=N)N)NC(=O)[C@H](Cc2c[nH]cn2)NC(=O)[C@H](C)NC(=O)CNC(=O)[C@H](Cc2c[nH]c3ccccc23)NC(=O)[C@H](CC(=O)O)NC(=O)[C@H](CCC(N)=O)NC(=O)[C@H](Cc2cccc3ccccc23)NC(=O)[C@H](C(C)C)NC1=O | RP-HPLC, C18 | 28% acetonitrile isocratic | pH 7.4 |  | retention factor | 4.007 ± 0.006 |
| O=C(Nc1nc2cccc(-c3ccc(CN4CCS(=O)(=O)CC4)cc3)n2n1)C1CC1 | refers to: pain in extremity | human rheumatoid arthritis patients | oral, 200 mg once daily, 4 weeks, regardless of relatedness |  | treatment-emergent adverse events | 0% |
| COc1ccc2[nH]c([S+]([O-])Cc3ncc(C)c(OC)c3C)nc2c1 (stereo not shown) |  | healthy Chinese volunteers, plasma | oral, 20 mg, enteric-coated capsules, CYP2C19 normal metabolizers |  | AUC(0-inf) | 510 ± 536 ng·h/mL |
| OC[C@H]1O[C@@H](c2ccc(F)c(Cc3cc4ccccc4s3)c2)[C@H](O)[C@@H](O)[C@@H]1O |  | Japanese type 1 diabetes patients | oral, 100 mg/day, day 14 |  | hypoglycaemia adverse events | 8 % patients |
| Cn1cc2cc1C(=O)NCCCC(=O)Nc1cn(C)c(n1)C(=O)Nc1cn(C)c(n1)C(=O)Nc1cc(n(C)c1)C(=O)Nc1cc(n(C)c1)C(=O)NC[C@H](N)CC(=O)Nc1cc(n(C)c1)C(=O)Nc1cc(n(C)c1)C(=O)Nc1cc(n(C)c1)C(=O)N2 | dynamic light scattering | 0.1% DMSO in PBS | 25 °C |  | critical aggregation concentration | 4 µM |
| CO[C@H]1C[C@@H]2CC[C@@H](C)[C@@](O)(O2)C(=O)C(=O)N2CCCC[C@H]2C(=O)O[C@H]([C@H](C)C[C@@H]2CC[C@@H](OC(=O)NCCOCCOCCOCCOCCOCCOCCOCCOCCC(=O)N3CCc4cc(Cn5nc(-c6ccc7oc(N)nc7c6)c6c(N)ncnc65)ccc4C3)[C@H](OC)C2)C[C@@H](O)[C@H](C)/C=C(\C)[C@@H](O)[C@@H](OC)C(=O)[C@H](C)C[C@H](C)/C=C/C=C/C=C/1C |  | human, plasma | intravenous, 8 mg, cycle 1 | reference: day 15 over day 1 | AUClast ratio | 2.6 |
| CCc1cc(C(=O)NC)c2nccc(N3CCc4c(cc(Cn5ccnc5)cc4-c4cn(C)nc4C(F)(F)F)C3=O)c2c1 |  | Sprague Dawley rat, male, bile duct-cannulated, plasma | oral, 50 mg/kg |  | t1/2 | 1.5 h |
| Cc1cc(-c2nnc(N)nc2-c2ccc(F)cc2)cc(Cl)n1 |  | human patients, plasma | oral, 75 mg nanosuspension, single dose, arithmetic mean |  | terminal half-life | 16 h |
| CCOc1cc(/C=C2\CN(C(C)=O)CC3=C2OC(N)=C(C#N)C3c2ccc(O)c(OCC)c2)ccc1O (stereo not shown) |  | Wistar rats, tumour-bearing | dose not given, day 42 |  | body weight | 154 ± 0.8 g |
| Cc1nc2cccc(OCC(C)(C)C(=O)NC(C)C)c2c(N)c1C(=O)O |  | male Swiss albino CD-1 mouse, bone marrow | oral, 1000 mg/kg, 48 h |  | micronucleated polychromatic erythrocytes | 0.05% |
| CC(C)[C@@H](CN1CC[C@@](C)(c2cccc(O)c2)[C@@H](C)C1)NC(=O)[C@H]1Cc2ccc(O)cc2CN1 |  | Sprague-Dawley rat, plasma | intraperitoneal, 3 mg/kg |  | AUCtotal | 787 ng·h/mL |
| Cc1ccc(Sc2ccccc2N2CCNCC2)c(C)c1 | refers to: Thirst | healthy adult men | oral, 10 mg daily, 12 days |  | participants with TEAE | 0% |
| C[C@]12C[C@@]34C=CC(=O)[C@@](C)(CCC(=O)Nc5c(O)ccc(C(=O)O)c5O)[C@@H]3[C@H](C[C@@H]1C4)O2 |  | C57BL/6 mice, male, plasma | intravenous, 3 mg/kg |  | clearance | 16 mL/min/kg |
| CCOCc1nc(O)c(-c2nnc(Cc3ccc(Cl)cn3)o2)c(O)c1-c1c(OC)cccc1OC |  | rat, plasma | subcutaneous infusion, 3 mg/kg/day, day 7 after surgery |  | plasma concentration | 1830 nM |
| Cc1ccc([C@@H]2O[C@H](CO)[C@@H](O)[C@H](O)[C@H]2O)cc1Cc1ccc(-c2ccc(F)cc2)s1 |  | Japanese type 2 diabetes patients | 25 mg, day 16, 24 h urine collection | reference: baseline | urinary calcium excretion change | 20.7 mg |

Repeated from above:
| Structure (SMILES) | assay | test system | conditions | scale | measurement | result |
| --- | --- | --- | --- | --- | --- | --- |
| CO[C@@H]1[C@H](OC(=O)N2CC(CCN3CCOCC3)C2)CC[C@]2(CO2)[C@H]1[C@@]1(C)O[C@@H]1CC=C(C)C |  | human | dose not given, day 28, multiple ascending dose, unit not given | reference: baseline | INR change | 0.01 ± 0.04 |
| Nc1ncnc2c1ncn2[C@H]1C[C@@H]2OP(=O)(O)OC[C@H]3O[C@@H](n4cnc5c(N)ncnc54)C[C@@H]3OP(=O)(O)OC[C@H]2O1 |  | non-tumor-bearing mice, blood | intravenous, 1 mg/kg, toxicity study |  | RDW-CV | 12.6 ± 0.32% |
| Cc1cc(-c2nnc(N)nc2-c2ccc(F)cc2)cc(Cl)n1 |  | human patients, plasma | oral, 75 mg nanosuspension, single dose, arithmetic mean |  | terminal half-life | 16 h |
